Experimental data pooled from the literature.
Numbered parts are unrelated; each lists some results of a single study. Positions count from the first letter of the parent shown.

Set 1 — method: protein-binding microarray; molecule type: double-stranded DNA, one strand shown; medium: in vitro; tested at: 250 nM; notes: 60-bp whole probe; with: salmon DNA 0.4 mg/ml; reference: random background probes; reading: higher = stronger binding; endpoint: log fluorescence; constant ends, left off below: GCCTAGCAC … GTCTTGATTCGCTTGACGCTGCTG
Target: Interferon regulatory factor 5, full length, phosphomimetic (IRF5, Homo sapiens, UniProt Q13568-2, residues 1-514, K96S/S451D/S453D/S456D/S462D)
Sequence = TCACTTCCATTTTCTGAAACTGTGCTA; result = 2.27 z-score
Sequence = GACGGTCTCGGACTGTGGACGTGCTAG; result = -0.318 z-score
Sequence = TTAGGTATCGACACTGGGTGAGTGCTA; result = 2.34 z-score
Sequence = GTAGGTTTCGGGTATCGGTTAGTGCTA; result = 9.4 z-score
Sequence = TCTGCTTTGCCTTCAGCCCGGTGCTAG; result = -0.111 z-score
Sequence = TCAATTTGGCATATCTAACTGTGCTAG; result = 0.302 z-score
Sequence = TTAGATTTCCTTTTCCTTTAGTGCTAG; result = 1.48 z-score
Sequence = GAAGAACTGAGACTGGAGACGTGCTAG; result = -0.216 z-score
Sequence = TATGTTCACTATTTAAGGCCGTGCTAG; result = 0.421 z-score
Sequence = GACGAACTGGGGTTTCGCGACGTGCTA; result = -0.105 z-score
Sequence = GACGATCTCAGTTTGGAGACGTGCTAG; result = -0.23 z-score
Sequence = ATGGCTTTGCAGATAAATATGTGCTAG; result = -0.14 z-score
Sequence = TTAGCTCTCCTACTGCTTTAGTGCTAG; result = -0.295 z-score
Sequence = TTAGGGATCGGTCTCGGTTAGTGCTAG; result = 0.373 z-score
Sequence = AGCTATCACTATTCTAGGGAAGTGCTA; result = 3.01 z-score
Sequence = TTAGCACTGGGGTATCGGTTAGTGCTA; result = 2.38 z-score
Sequence = TATGTTCCTTATTTAAGACCGTGCTAG; result = 0.454 z-score

Set 2 — method: RNA Bind-n-Seq; molecule type: RNA; medium: in vitro; tested at: 365 nM; reference: no-protein control; reading: higher = stronger binding; endpoint: RBNS enrichment (R)
Target: RNA binding protein fox-1 homolog 2, RRM domain, GST-SBP tag (RBFOX2, Homo sapiens, UniProt O43251-10, residues 100-194)
Notes: natural RNA segment, single round, ends assumed
Constant ends, left off below: GGGAGUUCUACAGUCCGACGAUC … UGGAAUUCUCGGGUGCCAA
Residues (chain): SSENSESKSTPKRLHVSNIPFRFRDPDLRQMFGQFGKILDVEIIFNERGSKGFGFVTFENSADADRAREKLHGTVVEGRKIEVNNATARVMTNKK
Sequence = ACCACAGGUCUAUGUGUGCUGGGGGAUGUCAGGUGCCACCCAACGCUGUCCUGGUGGUAUUUACAAUGACAUCCUCCUCCUCCAUCACUCCAGGGGUGGUGUCUCGGCCG; result = 0.383
Sequence = AUUUUUCCCAUAAGAAUUAUAAGCUGCAUUUCUAAGGCAUAGCUCCAAUUAUGAGAUAAAAUUUAUACUUUUUACUUUUCUAAAUUAAACACAAGAAAGAAUGCAAAAAC; result = 0.737
Sequence = AACACAGCUAAAGAUCUUCUGAUAUUAUCAGCAAGGGAUGCAAGGACUUUAUUGGAAUCUGGAGAGUUUAACUGCCUUCUCUUGGUCUCCUCACUUACUUCUUAUGAAGU; result = 0.187
Sequence = UAGUUCGGCGAGGAGACUGGCCACUGGGGGUGGCUGUUCGGGACUGAGAGCGCCAAGGGUCUUUGCCAGCAAAGGAGGUUCUGCCUGUAAUUGAGCCUCUCUGAUGAUGG; result = 2.66
Sequence = UAAAGGCUUUGACCCCACAGCCUCCCCCUUCUGCCAUAGUGUCACUGGGGGCCAGUGCUCCCUCCACUCCACCACCCUCCCAGGGUGACAUUUAAGGGCAGCAACCAGAG; result = 0.51
Sequence = GAUUUCAGUAGCACAAGUUAUUUAAAUCUGUUUUUCUAACUGGGGGAAAAGAUUCCCACCCAAUUCAAAACAUUGUGCCAUGUCAAACAAAUAGUCUAUCAACCCCAGAC; result = 0.553
Sequence = AAAUGCAAUGCUUCCUACCCCCGUCCUGUCACAGGCAGUCUGAGGACUCACCUUCACACGUGAGACUUCGCUCUUACCCCAGCCCCCACCGCUGGAGGGGUUUCAAUCCC; result = 0.382
Sequence = ACAUUGUUUUGGACACUGGAAUAAUAUGAUUUAUUUUCACCUGUAAAAAUGACUUCAUUGUACUUGAACACCUUUGCAUUUCUCCAUUUGUGCCAUUUACAAGUGGAAAU; result = 0.379

Set 3 — method: competition protein-binding microarray; molecule type: double-stranded DNA, one strand shown; medium: in vitro; tested at: 2 µM; with: Pho4 competitor, 0.05 µM; reading: higher = stronger binding; endpoint: fluorescence intensity; constant ends, left off below: … GTCTTGATTCGCTTGACGCTGCTG
Target: Centromere-binding protein 1, full length, His-tagged (CBF1, Saccharomyces cerevisiae, UniProt P17106, residues 1-351)
UniProt P17106, sequence (whole entry, looked up): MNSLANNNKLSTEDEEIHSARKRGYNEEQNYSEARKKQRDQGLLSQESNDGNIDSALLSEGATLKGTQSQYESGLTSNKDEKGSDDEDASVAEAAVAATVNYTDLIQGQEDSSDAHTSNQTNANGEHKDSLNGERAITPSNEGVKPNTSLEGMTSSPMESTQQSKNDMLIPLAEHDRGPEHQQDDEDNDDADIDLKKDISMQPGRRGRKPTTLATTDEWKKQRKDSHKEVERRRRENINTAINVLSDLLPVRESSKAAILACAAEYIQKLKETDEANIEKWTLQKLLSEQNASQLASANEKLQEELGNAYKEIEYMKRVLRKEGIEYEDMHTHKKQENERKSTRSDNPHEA
Notes: whole 60-bp probe, lowest competitor level
Sequence = AAAGCGGTAATTTGTCACTACACTTCACATATCTAT; result = 98.6 a.u.
Sequence = TAGCCCCCTATCTCCCACATGTTGGCATCTGTGAGG; result = 84.1 a.u.
Sequence = GGGAGACACTTCCGTCACGTGAACCTCTATCTATTT; result = 4480 a.u.
Sequence = ATAAGGAATAAAAAACACGTGCTAATAAAAAATCAA; result = 4150 a.u.
Sequence = AAAGCGGTAATTTGCTTTGTGGGTGCAGATATCTAT; result = 82.6 a.u.
Sequence = TGCGCAACAACTTTGCACGTGTTTTTATGTCTAGAA; result = 2160 a.u.
Sequence = TGAAATGGAATCGACCACGGGTCTTATTGAAAGCGG; result = 95.1 a.u.
Sequence = CGTCCTAGTGATTTTCACGTGGCATCCATGAGGAAG; result = 640 a.u.
Sequence = TACTGCTCCAGGGGTGACTTGATGTCCTCTGCTGGG; result = 58.6 a.u.
Sequence = TAACTAATAAGTAGTCACCTGACTGTGATATAAATT; result = 3650 a.u.
Sequence = CTAACGAAGGTTTGTATTGTGGGTGACAAGCCAAGT; result = 70.8 a.u.
Sequence = CGTCCTAGTGATTGCCTCGTGGGTGCCATGAGGAAG; result = 134 a.u.
Sequence = TTTCAGGCAAGCTGGCAGGTGACGCTCCGCACCTTC; result = 84.9 a.u.
Sequence = GAACTTGTGCTGTGCCAGATTGAATTTTGAAAGTAC; result = 84.7 a.u.
Sequence = CTTCTGTAAATTTGTCACTCCACTTGACGCGCCCCG; result = 99.4 a.u.
Sequence = CTAAAGATGACCGGATTCGTGATGGGGCTAGACACA; result = 64 a.u.

Set 4 — target: CCND2, cyclin fold, Cln2 fusion (human); method: yeast growth competition, sequencing; medium: yeast; notes: weak parent motif; reference: not given; reading: higher = stronger binding; endpoint: normalised enrichment score
Parent: FZR1 docking peptide (human); QDYERRLLRQIVI
Change = QDYERRLLAQIVI [R9A]; result = -0.11
Change = QDYERRLLRQIAI [V12A]; result = 0.147
Change = QDYERRALRQIVI [L7A]; result = 0.425
Change = QDYERALLRQIVI [R6A]; result = 0.227
Change = QDYERRLLRAIVI [Q10A]; result = -0.00228
Change = QDYERRLLRQIVA [I13A]; result = -0.229
Change = QDYERRLFRQIVI [L8F]; result = -0.134

Set 5 — method: protein binding microarray; molecule type: double-stranded DNA, one strand shown; medium: in vitro; tested at: not given; reference: not given; reading: higher = stronger binding; endpoint: E-score
Target: Histone acetyltransferase KAT6A, winged helix 1, GST fusion (KAT6A, Homo sapiens, UniProt Q92794, residues 1-85)
Notes: 8-mer, flanks averaged, mean of 2 arrays, mostly near background
Construct (chain): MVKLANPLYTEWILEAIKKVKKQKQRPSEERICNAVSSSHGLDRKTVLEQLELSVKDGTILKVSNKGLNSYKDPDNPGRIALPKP
Sequence = GTGAGAAA; result = -0.0359
Sequence = GTCACGTA; result = -0.0632
Sequence = CAAATAGG; result = -0.128
Sequence = CTGATGCA; result = 0.0191
Sequence = CTGAATCC; result = -0.0471
Sequence = AAACGTGC; result = -0.119
Sequence = ATCACAGG; result = -0.211
Sequence = AACGAAAT; result = -0.0758
Sequence = ATCGAAGC; result = 0.0367
Sequence = CCACGTTA; result = -0.175
Sequence = AAAGCGGA; result = 0.224
Sequence = CGTTTGCA; result = -0.0264
Sequence = AGTGAGTC; result = -0.0962
Sequence = CGGGTTAA; result = 0.301
